Assay results of several laboratories.
A part holds a random share of what one study measured. Positions count from the first letter of the parent shown.

Series 1 — target: MAFK, bZIP domain (human); technique: DHFR protein complementation; medium: yeast; baseline: wild-type JUN-FOS pair; reading: higher = stronger binding
Setting: single substitutions, most at no-binding floor
Starting sequence: JUN, bZIP domain (human); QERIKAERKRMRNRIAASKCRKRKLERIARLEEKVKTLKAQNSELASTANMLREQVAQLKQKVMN; partner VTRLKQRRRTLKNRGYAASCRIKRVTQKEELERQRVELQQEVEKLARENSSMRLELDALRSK
Substitution | binding fitness
S47A | -1.44 natural log
T48F | -1.46 natural log
A40C | -1.54 natural log
A49Y | -1.38 natural log
E32S | -1.48 natural log
A40P | -1.53 natural log
V56K | -1.51 natural log
K36D | -1.55 natural log
R53V | -1.53 natural log
N42G | -1.49 natural log
L38N | -1.47 natural log
E32M | -1.52 natural log
Q55S | -1.53 natural log
K39F | -1.54 natural log
Q55D | -1.49 natural log
K34V | -1.5 natural log
S47G | -1.44 natural log
R53S | -1.48 natural log
M51P | -1.46 natural log
K39W | -1.51 natural log

Series 2 — technique: RNA Bind-n-Seq; molecule type: RNA; medium: in vitro; tested at: 365 nM; baseline: no-protein control; reading: higher = stronger binding
Target: RNA binding protein fox-1 homolog 2, RRM domain, GST-SBP tag (RBFOX2, Homo sapiens, UniProt O43251-10, residues 100-194)
Setting: natural RNA segment, single round, ends assumed
All sequences stand within: GGGAGUUCUACAGUCCGACGAUC … UGGAAUUCUCGGGUGCCAA
Target sequence (chain): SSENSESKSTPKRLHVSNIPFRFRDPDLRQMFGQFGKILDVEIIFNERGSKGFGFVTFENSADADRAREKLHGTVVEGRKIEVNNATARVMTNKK
Oligonucleotide | RBNS enrichment (R)
GCCGCCCUCUGCUCUCAGUGGUCUCUGCUACUGAUGAAUCCAGUGGGUUUCCUUUCAUAUUCUCCUGGCCAACUCCAGAGUGGCCUCCUAACCCAGCAGGCCCACCCCUC | 0.237
ACCAUUUUUUUUACCUGAUUUUUGUUUUCAAAUAAGAAUGUAAGCAUUUUACUUAAAUUUUACUGUUUGCAAGUAGUCUAUAGAAAUUUUGUUUUAAGUCUUCAAAUAUC | 0.533
CCAUUGCUAGGGAGAGACUUCCAGUAAUAAAAUUUACUAUUCUAGAUGCUUCUACUGUUAUGUUUUAUCUGCCCAUUUAUCUUUCUUAGUUACCAGGAGAAAUGUGUGAC | 1.95
AGGAAGGAGCUGCCUUAAGCACUUUAGAAAAAGAAUUUGCUACAAUUCAUUUGACUCAGCUGAUUGUGUCACAUCUUUUAAAUACUGGUAAAUAUGGAUAUACCAAGUAU | 0.601
AGCCUGCACUCUGUUUAGUCAGCCGACUCAGGUUAUCUUCAGGGAAGGUAUGGAGGCAUGGUUUGUUUCGGUUCAUCUCCAGGAUGUAUACAGUGAAGACAAACCAAAUA | 0.262
UGGCCUGAGGGCCCAAGAAGUCCUGGCGUCCACACCCACACCCCACUGUCCACGCACAUGGAGGAAAAGUUACUGCUGAAGACCCACUCGAUGGACGAUCUCAGCCUUGA | 0.33
GCCCCUCAAAGCCACCUGAACCGUCGUCAACUUACCCAGCCUGUCUCCAUUAAACACCAGGAACCAACUGAGUGUUCUGUUUCUAACUGCACAGCACAAAGCUAGGGCUC | 0.444
GUGCUAUGGAAACAAUGAAGAGAAACGGGGAUUUCAGAAGAAAAUUGUAACCAAAUUCAUAUACUUUGUAUAAGUUUUUGAUAUCAUGAUCACAGGUGAUUCACACGUAC | 0.509

Series 3 — technique: protein binding microarray; molecule type: double-stranded DNA, one strand shown; medium: in vitro; tested at: not given; baseline: not given; reading: higher = stronger binding
Target: Histone acetyltransferase KAT6A, both winged helices, GST fusion (KAT6A, Homo sapiens, UniProt Q92794, residues 1-181)
Setting: 8-mer, flanks averaged, mean of 2 arrays, mostly near background
Residues (chain): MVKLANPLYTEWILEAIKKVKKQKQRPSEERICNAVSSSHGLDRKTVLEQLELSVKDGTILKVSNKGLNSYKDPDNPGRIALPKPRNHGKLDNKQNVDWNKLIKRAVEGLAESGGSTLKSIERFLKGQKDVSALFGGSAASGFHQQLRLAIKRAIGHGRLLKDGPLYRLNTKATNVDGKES
Oligonucleotide | E-score
CGCTCAAG | 0.211
TCACATGA | -0.094
CCCTTTTC | -0.281
ACAGTCGC | 0.0315
GCGGCTCA | 0.183
GGAACACC | -0.0418
ATCCACTG | -0.0895
CCAGAATC | -0.0995
CGTCCCGC | 0.309
AGCGCCCG | 0.249
AGGCTCGA | -0.0157
AAGAGGCT | -0.214
ATACCTGC | -0.0851
ATTGAGTC | -0.0302
CTGGAATA | -0.131
ATGTTTAA | -0.0971

Series 4 — technique: RNA Bind-n-Seq; molecule type: RNA; medium: in vitro; tested at: 200 nM; setting: whole 134-nt RNA, ends assumed; added: 150 mM LiCl; baseline: input library; reading: higher = stronger binding; each molecule: 7-deaza-guanosine replaces G
Target: Ras GTPase-activating protein-binding protein 1, full length (G3BP1, Homo sapiens, UniProt Q13283)
Sequence of UniProt Q13283 (whole entry, looked up): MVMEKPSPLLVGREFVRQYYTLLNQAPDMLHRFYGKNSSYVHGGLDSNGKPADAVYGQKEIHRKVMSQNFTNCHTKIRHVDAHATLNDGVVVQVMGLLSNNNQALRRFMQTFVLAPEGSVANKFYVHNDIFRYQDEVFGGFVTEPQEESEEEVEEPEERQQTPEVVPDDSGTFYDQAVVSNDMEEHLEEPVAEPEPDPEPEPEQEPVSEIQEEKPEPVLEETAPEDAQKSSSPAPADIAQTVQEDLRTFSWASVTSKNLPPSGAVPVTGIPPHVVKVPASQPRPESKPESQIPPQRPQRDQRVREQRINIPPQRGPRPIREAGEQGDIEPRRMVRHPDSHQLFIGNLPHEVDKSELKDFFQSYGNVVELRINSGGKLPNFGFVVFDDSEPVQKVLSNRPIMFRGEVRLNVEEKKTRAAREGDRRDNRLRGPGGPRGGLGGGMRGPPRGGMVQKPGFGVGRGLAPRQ
All sequences stand within: GGGAGUUCUACAGUCCGACGAUC … UGGAAUUCUCGGGUGUCAAGG
Oligonucleotide | log2 enrichment
ACCAUGCAGGUGGGCAUCUUUGGCAAGUGGGGCAAGGGGGGGAUAGGGAGGGGGGUAACACUUUGGGAACAGGUGGUCCCAGGUCGUUUC | 0.306
UGGGAGGUGGAUUUUGUUUAUUUUUUUAGCUCAUUUCCAGGGGUGGGAAUUUUUUUUUAAUAUGUGUCAUGGAUAAAGUUGUUUUUGAAA | 0.101
ACCAUGGAGGUGGGCAUCUUUGGGAAGUGGGGCAAGGGGGGGAUAGGGAGGGGGGUAACACUUUGGGAACAGGUGGUCCCAGGUCGUUUC | 0.0302
UUAGAAGAAUUUGGAAGGCCUUAAAUAUAGUAGCUUAGUUUGAAAAAUGUGAAGGACUUUCGUAACGGAAGUAAUUCAAGAUCAAGAGUA | -3.26
AGUCCUGUGCUACACAUCGUAUGUACCGAAUCGUGUGUGUGUGUGUGUGUGUGUGUGAAAGUAUUAUGUUACGCCGUUCGGAUCUGCACU | -0.559
ACCAUGCAGGUGGGCAUCUUUGAGAAGUGGGGCAAGGGGGGGAUAGGGAGGGGGGUAACACUUUGGGAACAGGUGGUCCCAGGUCGUUUC | 0.266
CACAGACAACACGCACCCACACAGACACAGAGGGAAGGGGUUGGGAUGGGGACAGGGUGCACAGCAGGGCGGGGUAGGACCCAAACCCCU | -0.579
CUGUGCUACACAUCGUAUGUACCGAAUCGGGGAAAAAGGGGUUUUUUUGGGGUUUUUGGGGAAAGUAUUAUGUUACGCCGUUCGGAUCUG | -1.57

Series 5 — target: CCND2, cyclin fold, Cln2 fusion (human); technique: yeast growth competition, sequencing; medium: yeast; setting: weak parent motif; baseline: not given; reading: higher = stronger binding
Starting sequence: WEE1 docking peptide (human); HKTFRKLRLFDTP
Substitution | normalised enrichment score
HHTFRKLRLFDTP [K2H] | 0.0459
HKTFRKLRLFDTV [P13V] | 0.14
HKTFRSLRLFDTP [K6S] | 0.161
HKTFRKLRLFDWP [T12W] | 0.292
HKTFRKLTLFDTP [R8T] | 0.0987
HKTFRKHRLFDTP [L7H] | -0.215
HKTFRKLRLFDYP [T12Y] | -0.0353
HKTFRKLRLFDRP [T12R] | 0.202
HKTFRKLRLFFTP [D11F] | 0.115
VKTFRKLRLFDTP [H1V] | -0.568
HKTFRKPRLFDTP [L7P] | -0.248
HKTFRQLRLFDTP [K6Q] | 0.305
HKTFRKLRLFKTP [D11K] | 0.143
HKTFRKLQLFDTP [R8Q] | 0.444
HKTFRKLRDFDTP [L9D] | 0.12
HKTFKKLRFFDTP [R5K L9F] | -0.978

Other studies, line by line
Substance | target | assay | system | setting | how to read | quantity | value
PhoQ, residues 284 288 289 292 302 303 GLASVI | PhoP, residues 12 14 15 18 19 TPLRH (Escherichia coli, UniProt P23836) | Sort-seq, measured: YFP reporter | E. coli | PhoQ-PhoP variant library, added: 10 µM Mg2+ | baseline: high Mg2+ state, higher = stronger signaling | fold induction | 2.56

For quick reference, copied from above (series 1):
Substitution | binding fitness
A40C | -1.54 natural log
L38N | -1.47 natural log
S47G | -1.44 natural log
K34V | -1.5 natural log
A49Y | -1.38 natural log
